{"data": "Results collected from several papers", "note": "Numbered parts are unrelated; each lists some results of a single study."}
{"data": "Block 1", "target": "Histone acetyltransferase KAT6A, winged helix 2, GST fusion (KAT6A, Homo sapiens, UniProt Q92794, residues 85-181)", "technique": "protein binding microarray", "form": "double-stranded DNA, one strand shown", "sample": "in vitro", "tested at": "not given", "setting": "8-mer, flanks averaged, mean of 2 arrays, mostly near background", "reference": "not given", "reading": "higher = stronger binding", "Target sequence (chain)": "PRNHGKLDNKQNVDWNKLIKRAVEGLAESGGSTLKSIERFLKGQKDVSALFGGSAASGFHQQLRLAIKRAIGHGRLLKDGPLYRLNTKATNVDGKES"}
{"Sequence": "TACGAGTA", "E-score": -0.0483}
{"Sequence": "GGCTAGTA", "E-score": 0.0183}
{"Sequence": "AAACGAAA", "E-score": 0.081}
{"Sequence": "ATCAAGTC", "E-score": -0.132}
{"Sequence": "AGTGGAGC", "E-score": 0.0555}
{"Sequence": "AAGTTATG", "E-score": -0.112}
{"Sequence": "AAGGGACT", "E-score": -0.0937}
{"Sequence": "ACGACCAG", "E-score": -0.00587}
{"Sequence": "CCTTAAAA", "E-score": -0.0325}
{"Sequence": "TAGCTAAA", "E-score": 0.0576}
{"Sequence": "AAGACTCA", "E-score": -0.238}
{"Sequence": "AGACCTGG", "E-score": -0.124}
{"Sequence": "GTACTATA", "E-score": -0.166}
{"Sequence": "ATTACAAT", "E-score": -0.0668}
{"Sequence": "ATACCGTA", "E-score": -0.147}
{"Sequence": "CGCGAAAA", "E-score": 0.124}
{"Sequence": "CAGAGGTC", "E-score": -0.101}
{"Sequence": "ACACGTAT", "E-score": -0.128}
{"data": "Block 2", "target": "RING finger protein unkempt homolog, zinc fingers 1-6, SBP tag (UNK, Homo sapiens, UniProt Q9C0B0, residues 30-357)", "technique": "RNA Bind-n-Seq", "form": "RNA", "sample": "in vitro", "tested at": "100 nM", "setting": "RNA with constant flanks, vertebrate orthologous sites, ends assumed", "reference": "input RNA pool", "reading": "higher = stronger binding", "shared flanks, not repeated": "GGGAGUUCUACAGUCCGACGAUC … CAACAGAGGAUUGAGCAUCA", "UniProt Q9C0B0, sequence (30-357, looked up)": "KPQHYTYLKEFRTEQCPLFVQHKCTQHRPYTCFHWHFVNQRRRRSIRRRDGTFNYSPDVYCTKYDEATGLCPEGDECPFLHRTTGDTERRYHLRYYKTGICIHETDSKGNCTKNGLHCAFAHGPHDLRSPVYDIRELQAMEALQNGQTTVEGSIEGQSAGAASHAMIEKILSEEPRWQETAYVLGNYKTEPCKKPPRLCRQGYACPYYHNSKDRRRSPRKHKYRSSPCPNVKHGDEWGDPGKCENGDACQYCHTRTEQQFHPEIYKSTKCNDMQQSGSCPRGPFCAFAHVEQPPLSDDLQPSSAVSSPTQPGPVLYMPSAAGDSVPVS"}
{"Sequence": "GAAUUGAACAAAAGCGUUUCCACUGGGUUUUGCCUGUAAGAAAAAACGUACCCGAGCACAUAGAGCUUUUUAAUAGCGCUAACCAAUGCCUUUUUAGAUGUAUUUUUGAUGUAUAUAUCU", "bound/input enrichment": "0.742 ratio"}
{"Sequence": "CUCACACUUAGUGUGUCCAAAAAUUGCUAUGAGGGUUUGAAACGUUCAAUAGUUUUCACGUAGAACUACGCUGGCAGGUGCUCAAGUACCAUCAUAGCAAUAUCGAAUACUGUCACAAUA", "bound/input enrichment": "0.966 ratio"}
{"Sequence": "AGCAACCCAAGGAUUCAGGACUGGUCUUAUAAAUACACCAAGUAAAUCUGGAACUAACAACAGAAUUGGACAACCUAGGCCUUAAUGUACCUCUAGUGUGUAUUUAUGAGGAAUUUUGAC", "bound/input enrichment": "0.578 ratio"}
{"Sequence": "UAUAAUUAUGAAAAUCUAAAGGAUUUUUAAUGUUUAAUUUCCCCCAGCAUAUAUAUUAAGACCUCUUUUUCCAGGCAGAUCAUUCAGAGUGUGCGAGUGUGUGUGCACAUGUUACAAAGA", "bound/input enrichment": "0.599 ratio"}
{"Sequence": "CUGUUGUUAAGCACUGUGUUCCAGACCGUGUCUGACUUUAGUGUAACCUAGGAGAUUUUAUAGUUUUAUUUUAAUGAAAUCCUGAUUGGUGCAGCGCAGUGGGAAAAGCAGUGUCUUUCA", "bound/input enrichment": "2.19 ratio"}
{"Sequence": "UAUUUGAGUUAGUUUUUCAUGUUUUCUGUAAAUAAUGGAUAAUCUUUUUAAAGUUUAUUUAAGUGCUGUUUUAACAACGAGGGCAGACUAUAAAUGUACUUGCUGAACUCAUUCAUUUUU", "bound/input enrichment": "0.607 ratio"}
{"Sequence": "UUCAGGCUCAACUGACUGUUUCACAGCAUUCCUUACACAGCUAUUUAACGAGUACAAGUGGAGUGAAUUUUCAGGAUACGUCUAGGCACUCAGCGUUAUCCUGCAGUCCAGUUGGAGAUG", "bound/input enrichment": "0.211 ratio"}
{"Sequence": "AAUCUUCUACUUAAACUGGUAUUUUCAAACAAUAGGAACCUAUUUUUUGUUUUUUUACAGUUUAGUAUCUCGUUUCUACAUGGAAGACUAAACUCAUGCUUAUAGCUAAAUGUGGUCUUU", "bound/input enrichment": "0.233 ratio"}
{"data": "Block 3", "target": "Interferon regulatory factor 3, full length, phosphomimetic (IRF3, Homo sapiens, UniProt Q14653, residues 1-427, S386D/S396D/S398D/S402D/T404D/S405D)", "technique": "protein-binding microarray", "form": "double-stranded DNA, one strand shown", "sample": "in vitro", "tested at": "2540 nM top", "setting": "60-bp whole probe", "together with": "salmon DNA 0.4 mg/ml", "reference": "random background probes", "reading": "higher = stronger binding", "shared flanks, not repeated": "GCCTAGCAC … GTCTTGATTCGCTTGACGCTGCTG", "Target sequence (chain)": "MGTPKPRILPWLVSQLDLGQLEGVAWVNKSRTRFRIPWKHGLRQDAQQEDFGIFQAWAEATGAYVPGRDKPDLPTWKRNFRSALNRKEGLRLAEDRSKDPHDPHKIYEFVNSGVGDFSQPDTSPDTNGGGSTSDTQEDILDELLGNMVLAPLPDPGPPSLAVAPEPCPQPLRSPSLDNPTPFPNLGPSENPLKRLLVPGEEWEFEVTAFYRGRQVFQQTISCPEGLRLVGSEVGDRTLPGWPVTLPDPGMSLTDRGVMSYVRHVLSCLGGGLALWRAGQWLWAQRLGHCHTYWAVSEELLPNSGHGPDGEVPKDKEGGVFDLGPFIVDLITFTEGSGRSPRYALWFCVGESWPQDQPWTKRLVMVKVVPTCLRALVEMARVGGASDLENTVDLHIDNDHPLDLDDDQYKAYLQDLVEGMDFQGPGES"}
{"Sequence": "GACGGTATCCTTTTCCTCACGTGCTAG", "fitted relative affinity [z-score]": 7.28}
{"Sequence": "TCATGTATGAGCCTCTGACTGTGCTAG", "fitted relative affinity [z-score]": -0.658}
{"Sequence": "GACGATTTCAGTCTCCAGACGTGCTAG", "fitted relative affinity [z-score]": 2.61}
{"Sequence": "GACGAACTGGGGACTGGGGACGTGCTA", "fitted relative affinity [z-score]": -0.65}
{"Sequence": "TGTTCATTTTCAAAACTGTTGTGCTAG", "fitted relative affinity [z-score]": 2.67}
{"Sequence": "GACCGTCTCGGTTTCGGGACGTGCTAG", "fitted relative affinity [z-score]": 4.25}
{"Sequence": "TTAGGTTTCGGGTTTAGGTTAGTGCTA", "fitted relative affinity [z-score]": 5.26}
{"Sequence": "TTAGGTTGCGGTCTCGGTTAGTGCTAG", "fitted relative affinity [z-score]": 4.47}
{"Sequence": "TTAGACTTCAGTATCGATTAGTGCTAG", "fitted relative affinity [z-score]": 0.549}
{"Sequence": "TTAGGTTTTGACTTTCGGTTAGTGCTA", "fitted relative affinity [z-score]": 1.66}
{"Sequence": "TTAGGTTTCATTATCCTTTAGTGCTAG", "fitted relative affinity [z-score]": 5.02}
{"Sequence": "TTACTTCCCAATTGTCTTTTCGTGCTA", "fitted relative affinity [z-score]": 2.54}
{"Sequence": "TTAGGTATCCCTATCCTTTAGTGCTAG", "fitted relative affinity [z-score]": 4.49}
{"Sequence": "TCATTGTTGTTTTTTGGACTGTGCTAG", "fitted relative affinity [z-score]": 0.656}
{"Sequence": "TCAGAAATTCCTCTGAGACTGTGCTAG", "fitted relative affinity [z-score]": -0.351}
{"Sequence": "CTGCTTGAAACTCTTACCCCGTGCTAG", "fitted relative affinity [z-score]": -0.0825}
{"Sequence": "TCAGCTTTTTTTTTTTTACTGTGCTAG", "fitted relative affinity [z-score]": 0.504}
{"Sequence": "GACGGTTTCGGGACTGGGTACGTGCTA", "fitted relative affinity [z-score]": 4.73}
{"data": "Block 4", "target": "RNA binding protein fox-1 homolog 2, RRM domain, GST-SBP tag (RBFOX2, Homo sapiens, UniProt O43251-10, residues 100-194)", "technique": "RNA Bind-n-Seq", "form": "RNA", "sample": "in vitro", "tested at": "365 nM", "setting": "natural RNA segment, single round, ends assumed", "reference": "no-protein control", "reading": "higher = stronger binding", "shared flanks, not repeated": "GGGAGUUCUACAGUCCGACGAUC … UGGAAUUCUCGGGUGCCAA", "Target sequence (chain)": "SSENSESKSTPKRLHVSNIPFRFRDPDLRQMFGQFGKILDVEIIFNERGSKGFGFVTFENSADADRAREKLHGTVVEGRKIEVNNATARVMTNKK"}
{"Sequence": "AGUGCCUGUUUCCGAGGAACCCUGUCUCCAGCUUGUGGCUAUCUUACUGUGUUCUGCCCAGGCACCUGAUGAGGUACAUCCUGCAGUGCCUCUCUGUGCUUGGCUCUGGC", "RBNS enrichment (R)": 0.937}
{"Sequence": "GCACUUAGGGGAGAUGACAUUUGCUUUGGGCAGAGGCAGCUAGCCAGGACACAUUUCCACUAUAAUUUUACAAAGUUAAAUUUAUAAGCUAGCAUUAAGUAAAGUGAAGU", "RBNS enrichment (R)": 0.676}
{"Sequence": "UAGAAGUAUUACAGAGAAUCAUCCUUUUAAUCACAGAUCUUAUUUUGGAGUAAAACAAACUUCUAGCUUUAGCCAGGUGUGCAUGUUGUCGCCAUUUGCAUUUUGAGUCA", "RBNS enrichment (R)": 21.9}
{"Sequence": "CCCUGCCUUAACCUAGGACCAACCUGGGACCUGACCUGUGAGGACUCUGUGCUGACCUUAUUCUUGGGGAAGGGAACAGAUUUUGACCUAGAUCAAGUGUAACUUAGGUC", "RBNS enrichment (R)": 0.362}
{"Sequence": "UCUUCCUUGGAGGGGGGAGCCAUAUUUUAUUCUUUUAUUGUCAGUAUCUGUAUCUCUCUCUCUUUUUGGAGGUGCUUAAGCAGAAGCAUUAACUUCUCUGGAAAGGGGGG", "RBNS enrichment (R)": 0.413}
{"Sequence": "CAUUGAAGGGAGGAGUUGCUUAAACCAAUGGGACUAAAACCUGAUGGGACAAUAACGCCUUUGGAGGAAGCACUCAACCAGUACUCUGUCAUCGAAGAGACCAGCUCUGA", "RBNS enrichment (R)": 0.334}
{"Sequence": "GGGGGUCUGCCUGCACACUCUGGGGAGCCAGGGGCCCCAGCACCCUCCAGGACAGGAGAUCUGGGAUGCCUGGCUGCUGGAGUACAUGUGUUCACAAGGGUUACUCCUCA", "RBNS enrichment (R)": 0.378}
{"Sequence": "GCCAGUUUUUUGUUUGCUUGUUUUUGAAACUGGGUUUAGGGGAUACAGUUGUCAGAAGUGACUCAUUCGCUUCAUUUGUGAUGAUUUUUUUUUAAUCUUCCUCUGUUAGC", "RBNS enrichment (R)": 35.3}
{"note": "Excerpt of the above (block 2):"}
{"Sequence": "CUGUUGUUAAGCACUGUGUUCCAGACCGUGUCUGACUUUAGUGUAACCUAGGAGAUUUUAUAGUUUUAUUUUAAUGAAAUCCUGAUUGGUGCAGCGCAGUGGGAAAAGCAGUGUCUUUCA", "bound/input enrichment": "2.19 ratio"}
{"Sequence": "GAAUUGAACAAAAGCGUUUCCACUGGGUUUUGCCUGUAAGAAAAAACGUACCCGAGCACAUAGAGCUUUUUAAUAGCGCUAACCAAUGCCUUUUUAGAUGUAUUUUUGAUGUAUAUAUCU", "bound/input enrichment": "0.742 ratio"}
{"Sequence": "CUCACACUUAGUGUGUCCAAAAAUUGCUAUGAGGGUUUGAAACGUUCAAUAGUUUUCACGUAGAACUACGCUGGCAGGUGCUCAAGUACCAUCAUAGCAAUAUCGAAUACUGUCACAAUA", "bound/input enrichment": "0.966 ratio"}
{"Sequence": "UUCAGGCUCAACUGACUGUUUCACAGCAUUCCUUACACAGCUAUUUAACGAGUACAAGUGGAGUGAAUUUUCAGGAUACGUCUAGGCACUCAGCGUUAUCCUGCAGUCCAGUUGGAGAUG", "bound/input enrichment": "0.211 ratio"}
{"Sequence": "AGCAACCCAAGGAUUCAGGACUGGUCUUAUAAAUACACCAAGUAAAUCUGGAACUAACAACAGAAUUGGACAACCUAGGCCUUAAUGUACCUCUAGUGUGUAUUUAUGAGGAAUUUUGAC", "bound/input enrichment": "0.578 ratio"}
